Measured values pooled from the literature.
Protocols differ between the studies behind these lines. Numbers after ± are the reported error.

| Compound | test | test system | setting | how to read | quantity | result |
| --- | --- | --- | --- | --- | --- | --- |
| CC(C)C[C@@H]1NC(=O)[C@H](Cc2ccccc2)NC(=O)[C@H](CCC(=O)O)NC(=O)CNC(=O)[C@H]([C@@H](C)O)NC(=O)[C@H](CCC(=O)O)NC(=O)[C@@H]2CCCN2C(=O)[C@H](CC(=O)O)NC(=O)[C@H](CC(C)C)NC(=O)[C@H](CCC(=O)NCCOCCOCC(=O)NCCCC[C@H](NC(=O)CC[C@@H]2NC(=O)[C@@H](CCCNC(=N)N)NC(=O)[C@H](CCCNC(=N)N)NC(=O)[C@@H](CCCNC(=N)N)NC(=O)[C@H](CCCNC(=N)N)NC(=O)[C@H](Cc3ccc4ccccc4c3)NC(=O)[C@@H](Cc3ccccc3)NC2=O)C(N)=O)NC(=O)CNC1=O | reversed-phase HPLC | 25% human serum | 24 h, 37 °C |  | remaining intact peptide | ~80% |
| CC[C@H](C)[C@H](NC(=O)[C@H](CCC(N)=O)NC(=O)[C@H](CO)NC(=O)[C@H](CC(C)(C)C)NC(=O)[C@H](CCC(=O)O)NC(=O)[C@H](CCC(=O)O)NC(=O)[C@H](CC(=O)O)NC(=O)[C@@H]1CCSCc2cccc(c2)CSCC[C@H](NC(=O)[C@H](C)NC(=O)[C@H](CC(=O)O)NC(=O)[C@H](CC(=O)O)NC(=O)[C@H](CCCNC(=N)N)NC(=O)CCNC(=O)CCNC(=O)CCCC[C@@H]2SC[C@@H]3NC(=O)N[C@@H]32)C(=O)N[C@@H](Cc2ccc3ccccc3c2)C(=O)N[C@@H](CC(=O)O)C(=O)N[C@@H]([C@@H](C)CC)C(=O)N[C@@H]([C@@H](C)CC)C(=O)N1)C(=O)N[C@@H](CCC(N)=O)C(=O)N[C@@H](CCC(=O)O)C(=O)N[C@@H](Cc1c[nH]c2ccccc12)C(N)=O |  | HeLa cell lysate | 150 µM, 24 h, pH 8, 37 °C | baseline: time zero | remaining intact peptide | 59% |
| CC[C@H](C)[C@@H]1NC(=O)[C@H](CCCCN)NC(=O)[C@H](CCCCN)NC(=O)[C@H](Cc2ccc(O)cc2)NC(=O)[C@H](CC(C)C)NC(=O)[C@@H]2CCCN2C(=O)[C@H](C)NC(=O)CNC(=O)CNC(=O)[C@H](CO)NC(=O)CNC(=O)CNC(=O)[C@H](CO)NC(=O)[C@H](CCC(=O)O)NC(=O)[C@H](CC(C)C)NC(=O)[C@H](CC(C)C)NC(=O)[C@H](CCCCN)NC(=O)[C@H](CCCCN)NC(=O)[C@H]([C@@H](C)CC)NC(=O)[C@H]([C@@H](C)CC)NC(=O)[C@H](CCCCN)NC(=O)[C@H](CCCCN)NC(=O)[C@H](Cc2ccc(O)cc2)NC(=O)[C@H](CC(C)C)NC(=O)[C@@H]2CCCN2C(=O)[C@H](C)NC(=O)CNC(=O)[C@@H](NC(=O)CN)CSSC[C@@H](C(=O)N[C@@H](CCC(=O)O)C(=O)N[C@@H](CO)C(=O)O)NC(=O)[C@H](CC(C)C)NC(=O)[C@H](CCCCN)NC(=O)[C@H](CCCCN)NC(=O)[C@H]([C@@H](C)CC)NC1=O |  | 25% human serum | 50 µM, 24 h | baseline: 0 h control | remaining intact peptide | 66.1 ± 5% |
| CC[C@H](C)[C@H](NC(=O)[C@@H](Cc1c[nH]c2ccccc12)NC(=O)[C@@H]1CCCN1C(=O)[C@H](CCCCN)NC(=O)[C@H](CCCCN)NC(=O)CCNC(=O)CCNC(=O)CN1CCN(CC(=O)O)CCN(CC(=O)O)CCN(CC(=O)O)CC1)C(=O)N[C@@H](C[Si](C)(C)C)C(=O)O [gallium-68 labelled] |  | human blood plasma | 15 min |  | remaining intact peptide | 23.5% |
| CC[C@H](C)[C@@H]1NC(=O)[C@H](CCCCN)NC(=O)[C@H](CCCCN)NC(=O)[C@H](Cc2ccc(O)cc2)NC(=O)[C@H](CC(C)C)NC(=O)[C@@H]2CCCN2C(=O)[C@H](C)NC(=O)CNC(=O)CNC(=O)[C@H](CO)NC(=O)CNC(=O)CNC(=O)[C@H](CO)NC(=O)[C@H](CCC(=O)O)NC(=O)[C@H](CC(C)C)NC(=O)[C@H](CC(C)C)NC(=O)[C@H](CCCCN)NC(=O)[C@H](CCCCN)NC(=O)[C@H]([C@@H](C)CC)NC(=O)[C@H]([C@@H](C)CC)NC(=O)[C@H](CCCCN)NC(=O)[C@H](CCCCN)NC(=O)[C@H](Cc2ccc(O)cc2)NC(=O)[C@H](CC(C)C)NC(=O)[C@@H]2CCCN2C(=O)CNC(=O)CNC(=O)[C@@H](NC(=O)CN)CSSC[C@@H](C(N)=O)NC(=O)[C@H](CC(C)C)NC(=O)[C@H](CCCCN)NC(=O)[C@H](CCCCN)NC(=O)[C@H]([C@@H](C)CC)NC1=O |  | 25% human serum | 50 µM, 24 h | baseline: 0 h control | remaining intact peptide | 10.4 ± 0.1% |
| O=C(NCCCCCn1ccc2ccc(F)cc21)Oc1ccccc1F |  | porcine liver S9 fraction without NADPH | 20 µM, 0.5 h, 37 °C |  | remaining parent compound | 76 ± 2% |
| CC[C@H](C)[C@@H]1NC(=O)[C@H](CCCCN)NC(=O)[C@H](CCCCN)NC(=O)[C@H](Cc2ccc(O)cc2)NC(=O)[C@H](CC(C)C)NC(=O)[C@@H]2CCCN2C(=O)[C@H](C)NC(=O)CNC(=O)CNC(=O)[C@H](CO)NC(=O)CNC(=O)CNC(=O)[C@H](CC(N)=O)NC(=O)[C@H](CCC(=O)O)NC(=O)[C@H](CC(C)C)NC(=O)[C@H](CC(C)C)NC(=O)[C@H](CCCCN)NC(=O)[C@H](CCCCN)NC(=O)[C@H]([C@@H](C)CC)NC(=O)[C@H]([C@@H](C)CC)NC(=O)[C@H](CCCCN)NC(=O)[C@H](CCCCN)NC(=O)[C@H](Cc2ccc(O)cc2)NC(=O)[C@H](CC(C)C)NC(=O)[C@@H]2CCCN2C(=O)[C@H](C)NC(=O)CNC(=O)CNC(=O)[C@H](CO)NC(=O)CNC(=O)CNC(=O)[C@H](CC(N)=O)NC(=O)[C@H](CCC(=O)O)NC(=O)[C@H](CC(C)C)NC(=O)[C@H](CC(C)C)NC(=O)[C@H](CCCCN)NC(=O)[C@H](CCCCN)NC(=O)[C@H]([C@@H](C)CC)NC1=O |  | 25% human serum | 50 µM, 24 h | baseline: 0 h control | remaining intact peptide | 24 ± 0.3% |
| CC(C)C[C@@H]1NC(=O)[C@@H]2CCCN2C(=O)[C@H](Cc2c[nH]c3ccccc23)NC(=O)[C@@H]2CCCN2C(=O)[C@H](Cc2ccccc2)NC(=O)[C@H](CC(=O)O)NC(=O)[C@H](C)NC(=O)[C@@H]2CSSC[C@H](NC(=O)[C@H](CCC(N)=O)NC(=O)[C@H](Cc3c[nH]cn3)NC(=O)CNC1=O)C(=O)N[C@@H](Cc1ccccc1)C(=O)N1CCC[C@H]1C(=O)N[C@@H](CC(=O)O)C(=O)NCC(=O)N[C@@H](Cc1ccccc1)C(=O)N[C@H]1CSSC[C@H](NC(=O)[C@H](CO)NC(=O)[C@H](Cc3c[nH]cn3)NC(=O)[C@H](Cc3c[nH]cn3)NC(=O)[C@H](Cc3c[nH]c4ccccc34)NC1=O)C(=O)N[C@@H](C(C)C)C(=O)N1CCC[C@H]1C(=O)N[C@@H](CO)C(=O)NCC(=O)N[C@@H]([C@@H](C)O)C(=O)N2 | LC-MS/MS | human male pooled serum | 50 µg/mL, 24 h, 37 °C |  | remaining intact | > 50% |
| CC[C@H](C)[C@@H]1NC(=O)[C@H](CCCCN)NC(=O)[C@H](CCCCN)NC(=O)[C@H](Cc2ccc(O)cc2)NC(=O)[C@H](CC(C)C)NC(=O)[C@@H]2CCCN2C(=O)[C@H](C)NC(=O)CNC(=O)CNC(=O)[C@H](CO)NC(=O)CNC(=O)CNC(=O)[C@H](CO)NC(=O)[C@H](CCC(=O)O)NC(=O)[C@H](CC(C)C)NC(=O)[C@H](CC(C)C)NC(=O)[C@H](CCCCN)NC(=O)[C@H](CCCCN)NC(=O)[C@H]([C@@H](C)CC)NC(=O)[C@H]([C@@H](C)CC)NC(=O)[C@H](CCCCN)NC(=O)[C@H](CCCCN)NC(=O)[C@H](Cc2ccc(O)cc2)NC(=O)[C@H](CC(C)C)NC(=O)[C@@H]2CCCN2C(=O)[C@H](C)NC(=O)CNC(=O)[C@@H]2CSSC[C@H](NC(=O)[C@H](CC(C)C)NC(=O)[C@H](CCCCN)NC(=O)[C@H](CCCCN)NC(=O)[C@H]([C@@H](C)CC)NC1=O)C(=O)N[C@@H](CCC(N)=O)C(=O)N[C@@H](CC(N)=O)C(=O)NCC(=O)N2 |  | 25% human serum | 50 µM, 24 h | baseline: 0 h control | remaining intact peptide | 22.5 ± 3.5% |
| CC[C@H](C)[C@H](N)C(=O)N[C@@H](CC(N)=O)C(=O)N[C@H]1CNC(=O)[C@H](CC(C)C)NC(=O)[C@H](CC(C)C)NC(=O)[C@H](Cc2ccccc2)NC(=O)[C@H](C)NC1=O | HPLC | ammonium carbonate | 72 h, pH 8.0, 37 °C |  | remaining intact peptide | > 60% |
| CSCC[C@H](NC(=O)CNC(=O)[C@H](CC(=O)O)NC(=O)[C@@H](NC(=O)[C@@H](NC(=O)[C@@H](NC(=O)CNC(=O)[C@H](CCC(=O)O)NC(=O)[C@H](CCSC)NC(=O)[C@H](CC(=O)O)NC(=O)[C@H](C)NC(=O)[C@H](C)NC(=O)[C@@H](NC(=O)[C@H](CO)NC(=O)[C@@H](N)CC(C)C)[C@@H](C)O)C(C)C)C(C)C)[C@@H](C)O)C(=O)N[C@@H](C)C(=O)N[C@@H](CO)C(=O)NCC(=O)N[C@@H](CC(C)C)C(=O)N[C@@H](CC(=O)O)C(=O)N[C@@H](CCCCN)C(=O)N[C@@H](CC(=O)O)C(=O)N[C@@H](Cc1ccc(O)cc1)C(=O)N[C@@H](CC(C)C)C(=O)N[C@@H](CCCCN)C(=O)N1CCC[C@H]1C(=O)N[C@@H](CC(=O)O)C(=O)N[C@@H](CC(=O)O)C(=O)O | LC-MS/MS | mouse serum | 10 µg/mL, 24 h, 37 °C |  | remaining compound | 68% |
| CC[C@H](C)[C@@H]1NC(=O)[C@H](CCC(N)=O)NC(=O)[C@H](CCC(N)=O)NC(=O)[C@@H]2CCCN2C(=O)[C@@H]2CCCN2C(=O)[C@H](CO)NC(=O)[C@H](CCSC)NC(=O)[C@H](CCCNC(=N)N)NC(=O)[C@H]([C@@H](C)O)NC(=O)[C@H]([C@@H](C)O)NC(=O)[C@H](Cc2ccccc2)NC(=O)[C@@H](NC(=O)[C@@H](CO)NC(=O)[C@@H](Cc2ccccc2)NC(=O)[C@@H](CC(C)C)NC(=O)[C@@H]2CCCN2C(=O)[C@@H](CC(C)C)NC(=O)[C@@H](Cc2ccccc2)NC(=O)[C@@H](CCC(=O)O)NC(=O)[C@@H](C)NC(=O)[C@@H](Cc2ccccc2)NC(=O)[C@H](N)C(C)C)CSSC[C@@H](C(=O)N[C@@H](CC(C)C)C(=O)N[C@@H](CC(N)=O)C(N)=O)NC1=O |  | 20% human plasma | 0.5 mg/mL, 72 h, pH 7.4, 37 °C |  | remaining intact peptide | ~50% |
| O=C(O)Cc1cccc(OC(=O)NCCCCCn2ccc3ccc(F)cc32)c1 |  | porcine liver S9 fraction without NADPH | 20 µM, 0.5 h, 37 °C |  | remaining parent compound | 73 ± 2% |

Excerpt of the above:
| Compound | test | test system | setting | how to read | quantity | result |
| --- | --- | --- | --- | --- | --- | --- |
| O=C(NCCCCCn1ccc2ccc(F)cc21)Oc1ccccc1F |  | porcine liver S9 fraction without NADPH | 20 µM, 0.5 h, 37 °C |  | remaining parent compound | 76 ± 2% |
| CC[C@H](C)[C@@H]1NC(=O)[C@H](CCCCN)NC(=O)[C@H](CCCCN)NC(=O)[C@H](Cc2ccc(O)cc2)NC(=O)[C@H](CC(C)C)NC(=O)[C@@H]2CCCN2C(=O)[C@H](C)NC(=O)CNC(=O)CNC(=O)[C@H](CO)NC(=O)CNC(=O)CNC(=O)[C@H](CO)NC(=O)[C@H](CCC(=O)O)NC(=O)[C@H](CC(C)C)NC(=O)[C@H](CC(C)C)NC(=O)[C@H](CCCCN)NC(=O)[C@H](CCCCN)NC(=O)[C@H]([C@@H](C)CC)NC(=O)[C@H]([C@@H](C)CC)NC(=O)[C@H](CCCCN)NC(=O)[C@H](CCCCN)NC(=O)[C@H](Cc2ccc(O)cc2)NC(=O)[C@H](CC(C)C)NC(=O)[C@@H]2CCCN2C(=O)[C@H](C)NC(=O)CNC(=O)[C@@H](NC(=O)CN)CSSC[C@@H](C(=O)N[C@@H](CCC(=O)O)C(=O)N[C@@H](CO)C(=O)O)NC(=O)[C@H](CC(C)C)NC(=O)[C@H](CCCCN)NC(=O)[C@H](CCCCN)NC(=O)[C@H]([C@@H](C)CC)NC1=O |  | 25% human serum | 50 µM, 24 h | baseline: 0 h control | remaining intact peptide | 66.1 ± 5% |
